Assay results collected from several papers.
Compare with care: the assays were run in different laboratories. Several values in a cell are separate wells, animals, samples, runs or records. ± marks the error that the study gave.

C[C@]12CC[C@H](O)C[C@H]1CC[C@@H]1[C@@H]2CC[C@]2(C)[C@@H](C3=CC(=O)OC3)[C@@H](O)C[C@]12O  EC50 (iPSC-derived cardiomyocytes; concentration-response curve, refers to: MyBP-C protein level; 24 h): 41.5 µM
Oc1cc(Cl)ccc1Oc1ccc(Cl)cc1Cl  representative mode point of departure (HepG2; protein level, refers to: TNFAIP3 (A20); 1 h): 28.8 µM
CC(=O)Nc1ccc(C=Cc2ccc(N=C=S)cc2S(=O)(=O)O)c(S(=O)(=O)O)c1  Ki (human neutrophils; sulfate/chloride exchange, noncompetitive inhibitor): ~50 µM
CC(C)N1CCC(NC2CCN(c3cccc(-c4cc5cc(F)ccc5[nH]4)c3)CC2)CC1  GI50 (SNB-75): 1.45 µM
CC1=C(O)C(=O)C=C2C1=CC=C1[C@@]2(C)CC[C@@]2(C)[C@@H]3C[C@](C)(C(=O)O)CC[C@]3(C)CC[C@]12C  EC50 (iPSC-derived cardiomyocytes; concentration-response curve, refers to: MyBP-C protein level; 24 h): 6 µM
C[C@]12CC[C@H](O)C[C@H]1CC[C@@H]1[C@@H]2CC[C@]2(C)[C@@H](c3ccc(=O)oc3)CC[C@]12O  mRNA level (MCF7; RT-qPCR, refers to: PGR; 20 nM, 48 h, unit not given, added: estradiol; relative to: untreated): 2.17 and 2.2 and 1.68
CC[C@H](C)[C@@H]([C@@H](CC(=O)N1CCC[C@H]1[C@H](OC)[C@@H](C)C(=O)N[C@@H](Cc1ccccc1)C(=O)O)OC)N(C)C(=O)[C@@H](NC(=O)[C@H](C(C)C)N(C)C(=O)CCSSC[C@H](NC(=O)[C@@H](NC(=O)CNC(=O)[C@H](CCC(=O)O)NC(=O)[C@H](CC(=O)O)NC(=O)[C@H](C)NC(=O)[C@H](CC(=O)O)NC(=O)[C@@H](NC(=O)[C@H](CC(C)C)NC(=O)[C@H](CC(C)C)NC(=O)[C@H](C)NC(=O)[C@H](CC(C)C)NC(=O)[C@H](CC(=O)O)NC(=O)[C@H](CC(C)C)NC(=O)[C@H](CC(C)C)NC(=O)[C@H](CC(C)C)NC(=O)[C@H](CC(C)C)NC(=O)[C@@H]1CCCN1C(=O)[C@@H](NC(=O)[C@@H](NC(=O)[C@H](Cc1ccccc1)NC(=O)[C@H](CC(C)C)NC(=O)[C@H](Cc1c[nH]c2ccccc12)NC(=O)[C@H](CC(=O)O)NC(=O)[C@H](C)NC(=O)[C@H](Cc1ccc(O)cc1)NC(=O)[C@H](CCCNC(=N)N)NC(=O)[C@H](C)NC(=O)[C@H](Cc1c[nH]c2ccccc12)NC(=O)[C@H](Cc1ccc(O)cc1)NC(=O)[C@@H](NC(=O)[C@@H]1CCCN1C(=O)[C@H](CC(N)=O)NC(=O)[C@H](CCC(N)=O)NC(=O)[C@H](CCC(=O)O)NC(=O)[C@H](C)NC(=O)[C@H](C)N)[C@@H](C)CC)[C@@H](C)O)[C@@H](C)O)C(C)C)[C@@H](C)O)C(=O)NCC(N)=O)C(C)C  cell killing (HeLa; MTT; 40 nM, 72 h, 2 h low pH treatment): 80%
CC(c1ccccc1)(c1ccc(O)cc1)c1ccc(O)cc1  G1 phase cells (HepG2 spheroids; Hoechst flow cytometry; 1 µM, 24 h): 71 ± 1.41%
CC1=CC(=O)c2c(O)cccc2C1=O  selectivity index (HuCC-A1; MTT; relative to: IC50 MRC-5 over IC50 HuCC-A1): 0.46
COc1c(CCC[P+](c2ccccc2)(c2ccccc2)c2ccccc2)cc2c(c1OC)OCO2.[I-]  LC50 (NCI-H226; SRB): > -4 log M
Cn1cncc1C1=CN(c2ncnc3[nH]cnc23)CCS1  CC50 (SNB-75; CNS cancer): 141 µM
Cc1c(O)c(O)cc2c1CC=C1[C@@]2(C)CC[C@@]2(C)[C@@H]3C[C@](C)(C(=O)O)CC[C@]3(C)CC[C@]12C  EC50 (iPSC-derived cardiomyocytes; concentration-response curve, refers to: MyBP-C/MYH ratio; 24 h): 8 µM
O=C1N(Cc2ccccc2Cl)c2ccccc2C12NN=C(c1ccccc1)S2 (stereo not drawn)  fold change (MDA-MB-468; gene expression array, refers to: RPL7L1 mRNA; 10 µM, 12 h; relative to: untreated, down): 1.6
C=C1C(=O)O[C@H]2C[C@@]3(C)O[C@@H]3CC/C(C)=C/[C@@H](OC(C)=O)[C@H]12  fitted top MyBP-C level (iPSC-derived cardiomyocytes; concentration-response fit; concentration not given; relative to: vehicle): 100%
Cn1cc2cc(C(F)(F)c3nnc4ccc(-c5cnn(C6CC6)c5)nn34)c(F)cc2n1  early apoptotic cells (MKN-45; annexin V/PI flow cytometry; 2 nM, 48 h): 5.14% and 5.06% and 5.64%
COc1ccc(OC)c(N2C(=O)NC(=O)/C(=C\c3ccc([N+](=O)[O-])s3)C2=O)c1  efficacy (C127 LDR GFP reporter cells; silenced GFP reporter induction, activator, high-content imaging; retest, two-run mean): 29%
COc1ccc(S(=O)(=O)Nc2ccc3oc(-c4ccc(NS(=O)(=O)c5cc(F)ccc5OC)cc4)nc3c2)cc1  EC50 (DLD-1 colorectal cancer; 48 h): 15 to 18 µM
COc1ccc([C@H]2c3[nH]c4ccc(Cl)cc4c3CCN2C(=O)Oc2ccc(Cl)cc2)cc1  inhibition (human dermal fibroblasts with PBMC; cytokine secretion, refers to: IL-8; 0.01 µM, 48 h): 25%
Nc1ncnc2c1ncn2[C@@H]1O[C@@H]2COP(=O)(O)O[C@H]3[C@@H](O)[C@H](n4cnc5c(=O)[nH]cnc54)O[C@@H]3COP(=O)(O)O[C@H]2[C@H]1O  pathway fold enrichment (HFF-1; RNA sequencing Reactome analysis, refers to: Reactome R-HSA-449147 signaling by interleukins; added: West Nile virus infection; relative to: West Nile virus infected cells, upregulated pathway): 2.53
O=C(Nc1ccc2[nH]nc(-c3ccncc3)c2c1)[C@@H]1CCN(CC(=O)N2CCN(c3ccc(-c4ncccn4)cc3)CC2)C1  PI-positive cells (HCT116; IncuCyte; concentration not given, 24 (unit not given)): 6 count and 6.5 count and 7.5 count
NC(=O)c1cccc2c1O/C(=C\c1ccc(C(=O)N[C@H]3CN4CCC3CC4)s1)C2=O  PARylation (SUM149; cellular PARylation, inhibitor, Western blot; added: H2O2): inhibited
N.N.[Cl][Pt][Cl]  resistance factor (A2780cis; MTT; relative to: A2780cis over A2780 IC50): ~37 fold
O=S(=O)(c1ccc(O)cc1)c1ccc(O)cc1  S phase cells (HepG2 spheroids; Hoechst flow cytometry; 0.10 µM, 96 h): 10.7 ± 4.16%
COc1cc(CCC[P+](c2ccccc2)(c2ccccc2)c2ccccc2)c(OC)c2c1OCO2.[I-]  TGI (SK-OV-3; SRB): -5.19 log M
COc1ccc2c(c1)[nH]c1c(C)nccc12  DNA methylation (DU-145; bisulfite pyrosequencing, refers to: RASSF1A promoter CpG site 30; 10 µM, 16 h): 89.8%
Oc1ccc(C(c2ccc(O)cc2)(C(F)(F)F)C(F)(F)F)cc1  S phase cells (HepG2 spheroids; Hoechst flow cytometry; 10 µM, 24 h): 7.5 ± 2.57%
C/C=C(/C)C(=O)O[C@H]1C(C)=C2[C@H]([C@@H]1OC(=O)CCCCCCC)[C@@](C)(OC(C)=O)C[C@H](OC(=O)CCC)[C@@]1(O)[C@H]2OC(=O)[C@@]1(C)O  normalized enrichment score (HEK-293T; RNA-seq GSEA, refers to: Hallmark coagulation; 500 nM, 6 h; direction not given): -1.11
CCN(CC)c1ccc(C=NNC(=O)CSc2nc3ccccc3c(=O)n2Cc2ccc(S(N)(=O)=O)cc2)c(O)c1  CC50 (A498; NCI five-dose screen): > 100 µM
CCC(=O)N(CCC#N)c1ccc2c(c1)OCCN2CC(=O)NCC(=O)Nc1ccc(C(=O)NCCCCCCC(=O)NO)cc1.O=C(O)C(F)(F)F  cell cycle distribution (MM1.S; PI flow cytometry; 10 µM, 48 h): no effect
Cc1nn(-c2nc3ccc(Cl)c(Cl)c3[nH]2)c(O)c1C1OC(=O)c2ccccc21 (stereo not drawn)  viability (RAW-ISG; CCK-8; 1 µM): 111% and 102% and 108% and 98.2%
COc1c(C)c2c(c(O)c1C/C=C(\C)CCC(=O)O)C(=O)OC2  IC50 (IGROV-1; cell proliferation): 0.562 µM
CN1CCN(C2(CNC3CCN(c4cccc(-c5cc6cc(F)ccc6[nH]5)c4)CC3)CCC2)CC1  GI50 (NCI-H226): 2.05 µM
Nc1ncc(-c2nc(N3CCOCC3)nc(N3CCOCC3)n2)c(C(F)F)n1  GI50 (BT-20; 72 h): 0.042 µM
Cc1c(C(=O)NN2CCCCC2)nn(-c2ccc(Cl)cc2Cl)c1-c1ccc(I)cc1  cAMP increase over basal (TC-71; concentration not given, added: forskolin 10 µM): 16.6 ± 4.53%
C[C@@H]1O[C@@H](O[C@H]2C[C@@H](O)[C@]3(CO)[C@H]4[C@H](O)C[C@]5(C)[C@@H](C6=CC(=O)OC6)CC[C@]5(O)[C@@H]4CC[C@]3(O)C2)[C@H](O)[C@H](O)[C@H]1O  inhibition (BT-12; cell viability, MTT; 10 µM, 72 h): 94.9%
Cn1nccc1Nc1nccc(-c2ccn([C@H](CO)c3ccc(Cl)c(F)c3)c(=O)c2)n1  PI-positive cells (HCT116; IncuCyte; concentration not given, 36 (unit not given)): 8.25 count and 9.67 count and 13.3 count
